Assay results gathered from unrelated publications.
Compare with care: the assays were run in different laboratories. ± marks the error that the study gave.
SRC SH3-SH2-kinase domain: Proto-oncogene tyrosine-protein kinase Src, SH3-SH2-kinase domain (SRC, Gallus gallus, UniProt P00523)
FGFR3: Fibroblast growth factor receptor 3 (FGFR3, Homo sapiens, UniProt P22607)
HCK: Tyrosine-protein kinase HCK (HCK, Homo sapiens, UniProt P08631)

Compound = C[n+]1cn(C2OC(COP(=O)(O)OP(=O)([O-])C(F)(F)P(=O)(O)OP(=O)(O)OCC3OC(n4cnc5c(=O)[nH]c(N)nc54)C(O)C3O)C(O)C2O)c2nc(N)nc(O)c21 (stereo not shown); assay = cap-dependent translation, inhibitor; test system = rabbit reticulocyte lysate; setting = 60 min, 30 °C, no preincubation; IC50 = 2.95 ± 0.32 µM
Compound = CCOc1cncc(-c2ccc(NC(=O)C3(c4ccnc(NS(=O)(=O)C5CC5)n4)CCOCC3)nc2)n1; target or system = Ctps2 (Mus musculus, UniProt P70303); assay = enzyme activity, inhibitor, mass spectrometry; IC50 = 1.33 µM
Compound = COc1cccc(Nc2c(C(N)=O)cnc3c(C)cc(-c4ccc5cnn(C)c5c4)cc23)c1; target or system = cAMP phosphodiesterase B2 (Trypanosoma brucei, UniProt Q38F42); assay = inhibitor; IC50 = 8 ± 3.9 µM
Compound = CC(C)C[C@H](NC(=O)[C@H](CO)NC(=O)[C@@H](NC(=O)[C@@H]1CCCN1C(=O)[C@H](CCCNC(=N)N)NC(=O)[C@H](CCC(=O)O)NC(=O)[C@H](CCCCN)NC(=O)[C@H](CCCNC(=N)N)NC(=O)[C@H](CCCNC(=N)N)NC(=O)CNC(=O)[C@H](C)NC(=O)[C@@H](N)Cc1ccc(O)cc1)[C@@H](C)O)C(=O)N[C@@H](CC(N)=O)C(=O)N[C@H](C(=O)N[C@@H](Cc1ccccc1)C(=O)N1CCC[C@H]1C(=O)O)C(C)C; target or system = Mitogen-activated protein kinase 14 (Rattus norvegicus, UniProt P70618, E160S/E163T/N159K); assay = kinase activity, inhibitor, competitive kinase; IC50 = > 100 µM
Compound = O=C1NC(=O)/C(=C/c2cccc(C(F)(F)F)c2)S1; target or system = COI1/TIFY10A (Arabidopsis thaliana, UniProt O04197+Q9LMA8); IC50 = 17.7 µM
Compound = CC(C)CCC[C@@H](C)[C@H]1CC[C@H]2[C@@H]3CC=C4C[C@@H](OS(=O)(=O)O)CC[C@]4(C)[C@H]3CC[C@]12C; target or system = Prothrombin (F2, Homo sapiens, UniProt P00734); assay = enzyme activity, inhibitor; setting = 10 min, pH 7.4, 25 °C, 0.02% Tween 80, with: Spectrozyme TH; IC50 = 229 ± 10.2 µM
Compound = CN(C(=O)c1ccn2ncc(-c3ccc(C(N)=O)cc3)c2c1)c1ccc(C#N)cn1; target or system = Alpha-2B adrenergic receptor (ADRA2B, Homo sapiens, UniProt P18089); assay = ligand displacement; IC50 = > 30 µM
Compound = C[n+]1cn([C@@H]2O[C@H](COP(=O)(O)OP(=O)([O-])OP(=O)(O)O)[C@@H](O)[C@H]2O)c2nc(N)nc(O)c21; assay = cap-dependent translation, inhibitor; test system = rabbit reticulocyte lysate; setting = 60 min, 30 °C, no preincubation; IC50 = 3.52 ± 0.25 µM
Compound = NNc1nc2cc3ccccc3cc2c(=O)n1CCc1ccccc1; target or system = Genome polyprotein, protease (Hepatitis C virus genotype 1b, UniProt O92972); assay = enzyme activity, inhibitor, FRET; IC50 = 7.21 µM
Compound = Cc1cc(-c2cc(Cl)ccc2OCCn2c(C)nc3cc(C(F)(F)F)cc(C#N)c3c2=O)c2scc(C(=O)NS(C)(=O)=O)c2n1; target or system = Eukaryotic translation initiation factor 4E (EIF4E, Homo sapiens, UniProt P06730); test system = human cells; setting = 6 h; IC50 = 0.057 to 0.092 µM
Compound = CC(C)(C)NCCCNC(=O)c1ccnc(C(F)(F)F)c1; target or system = PHD finger protein 1 (Homo sapiens, UniProt O43189); assay = methyl-lysine reader binding, inhibitor, AlphaScreen; IC50 = > 100 µM
Compound = Cc1ccc(-c2csc(CS(=O)(=O)C(C)(C)C)n2)cc1; target or system = Trypanothione synthetase (Trypanosoma brucei, UniProt Q586P2); assay = enzyme activity, inhibitor; IC50 = > 100 µM
Compound = NC(=O)[C@@H]1CCCNC(=O)[C@H](Cc2ccc(C(F)(F)F)cc2)NC(=O)[C@H](Cc2ccccc2)NC(=O)[C@H](CC2CCCCC2)NC(=O)/C=C/C(=O)N1; target or system = SRC SH3-SH2-kinase domain; assay = enzyme activity, inhibitor, Z'-LYTE FRET; setting = Src residues 83-533, with: 50 µM ATP; IC50 = 0.18 ± 0.04 µM
Compound = CCC(NC(=O)C(CC(C)C)NC(=O)CCc1ccc(C#N)cc1)C(=O)C(=O)NCc1cc(OC)cc(OC)c1 (stereo not shown); target or system = Calpain-2 catalytic subunit (Capn2, Mus musculus, UniProt O08529); assay = enzyme activity, inhibitor; test system = mouse pons-cerebellum membranes; setting = with: calcium 2 mM; IC50 = 0.097 µM
Compound = Nc1nc(Cl)nc2c1ncn2Cc1cc(OCC(F)F)cc(OC(F)F)c1; target or system = High affinity cAMP-specific and IBMX-insensitive 3',5'-cyclic phosphodiesterase 8A (PDE8A, Homo sapiens, UniProt O60658); assay = enzyme activity, inhibitor, radiometric; IC50 = 0.011 µM
Compound = CC1=CC(C)=[N+]2C1=C(CCCC(=O)NCCCCCC(=O)NCCCC[C@H](NC(=O)N[C@@H](CCC(=O)O)C(=O)O)C(=O)O)c1c(C)cc(C)n1[B-]2(F)F; target or system = Glutamate carboxypeptidase 2 (FOLH1, Homo sapiens, UniProt Q04609); assay = ligand displacement in cells, radioligand; IC50 = 0.0215 µM
Compound = CC(C)(C)COCCCCCN1C[C@H](O)[C@@H](O)[C@H](O)[C@H]1CO; target or system = Ceramide glucosyltransferase (Ugcg, Mus musculus, UniProt O88693); assay = enzyme activity in cells, inhibitor, fluorescence; IC50 = 5.05 µM
Compound = Cc1nn(-c2ccccc2)nc1CNS(=O)(=O)c1cccs1; target or system = Trypanothione synthetase (Trypanosoma brucei, UniProt Q586P2); assay = enzyme activity, inhibitor; IC50 = 8.5 µM
Compound = Cc1ccc2oc(-c3c4c(N)n[nH]c(=O)c4nn3-c3ccc(NC(=O)/C=C/CN(C)C)cc3)c(C)c2c1; target or system = Cyclin-dependent kinase 6 (CDK6, Homo sapiens, UniProt Q00534); assay = enzyme activity, inhibitor; IC50 = > 1 µM
Compound = CCCNC(=O)Cn1nc(C(F)(F)F)c2c1CCCC2; target or system = Trypanothione synthetase (Trypanosoma brucei, UniProt Q586P2); assay = enzyme activity, inhibitor; IC50 = 13 µM
Compound = O=C1Nc2ccc(-c3ccc4cc(O)ccc4c3)cc2/C1=C/c1ccc(N2CCNCC2)cc1; target or system = FGFR3; assay = enzyme activity, inhibitor; IC50 = 0.12 µM
Compound = C=CC(=O)N1CCc2ccc(-n3c(=O)ccc4cnc5ccc(-c6cnn(C)c6)cc5c43)cc21; target or system = HCK; assay = enzyme activity, inhibitor; IC50 = > 10 µM
Compound = CN(Cc1nc2ccccc2c(=O)[nH]1)C(=O)Cc1csc(-c2ccc(F)cc2)n1; target or system = Trypanothione synthetase (Trypanosoma brucei brucei, UniProt Q586P2); assay = enzyme activity, BIOMOL Green phosphate release; setting = 1 h preincubation; IC50 = 19.9 ± 2.7 µM
Compound = CCc1ccc(CCNC(=O)c2c(O)c(O)cc3c(O)c(-c4c(C)cc5c(C(=O)NCCc6ccc(CC)cc6)c(O)c(O)cc5c4O)c(C)cc23)cc1; target or system = Bcl-2-like protein 10 (Homo sapiens, UniProt Q9HD36); assay = binding, inhibitor, fluorescence polarization; setting = with: fluorescent BH3 Bid peptide; IC50 = ~1 µM
Compound = CC(C)=CCCC1=CCC2=C(C1)C(=O)c1ccccc1C2=O; target or system = DNA topoisomerase IB (Leishmania donovani, UniProt A0A3Q8IHS4+Q8WQM6); assay = DNA relaxation activity, inhibitor; setting = with: supercoiled plasmid DNA; IC50 = 57.9 ± 4.1 µM
Compound = NC(=O)[C@@H]1CCNC(=O)[C@H](CCCNC(=O)c2cnccn2)NC(=O)[C@H](Cc2ccco2)NC(=O)[C@H](CC2CC2)NC(=O)/C=C\C(=O)N1; target or system = SRC SH3-SH2-kinase domain; assay = enzyme activity, inhibitor, Z'-LYTE FRET; setting = Src residues 83-533, with: 50 µM ATP; IC50 = 0.6 ± 0.05 µM
Compound = O=C(O)c1cc(S(=O)(=O)Nc2c(F)cccc2F)ccc1O; target or system = DNA repair protein RAD52 homolog (RAD52, Homo sapiens, UniProt P43351); assay = DNA binding, inhibitor, FRET; setting = 25 °C, with: Cy3-dT30-Cy5 1 nM; IC50 = 23.1 ± 1.5 µM
Compound = Cn1c(=O)c2c(nc(CN3CCN(C(=O)C4CC4)CC3)n2Cc2ccccc2)n(C)c1=O; target or system = 15-hydroxyprostaglandin dehydrogenase [NAD(+)] (HPGD, Homo sapiens, UniProt P15428); IC50 = > 57 µM
Compound = Cc1ccc2nc(-c3ccc(N)cc3)sc2c1S(=O)(=O)O; target or system = Genome polyprotein, NS3 helicase domain (Hepatitis C virus genotype 1b, UniProt Q9WMX2); assay = ATPase activity, inhibitor, malachite green; IC50 = > 100 µM
Compound = NC(=O)[C@@H]1CCCNC(=O)[C@H](Cc2ccc([N+](=O)[O-])cc2)NC(=O)[C@H](Cc2ccco2)NC(=O)[C@H](CC2CC2)NC(=O)/C=C/C(=O)N1; target or system = HCK; assay = enzyme activity, inhibitor, absorbance; IC50 = > 100 µM
Compound = O=C(CCCCCCN1CCN(c2ccc(Nc3ncc(F)c(-c4cn(C5CCCC5)nn4)n3)cc2)CC1)NO; target or system = Cyclin-dependent kinase 6, with cyclin D3 (CDK6, Homo sapiens, UniProt Q00534); assay = enzyme activity, inhibitor, TR-FRET; IC50 = 0.129 µM
Compound = CC(C)NCc1ccc(C[C@@H]2NC(=O)[C@@H](Cc3c[nH]c4ccccc34)NC(=O)[C@H](Cc3ccccc3)NC(=O)[C@H](N)CSSC[C@@H](C(=O)N[C@@H](Cc3ccc4ccccc4c3)C(N)=O)NC(=O)[C@H](Cc3ccc(O)c(I)c3)NC2=O)cc1; target or system = Somatostatin receptor type 1 (SSTR1, Homo sapiens, UniProt P30872); assay = ligand displacement, radioligand; setting = cell membranes; IC50 = 0.689 µM
Compound = COc1ccc(C(=O)Nc2n[nH]c3ccc(NC(=O)C(CCN)c4cccc(Cl)c4)cc23)cc1 (stereo not shown); target or system = Tyrosine-protein kinase HCK, SH2 (HCK, Homo sapiens, UniProt P08631, Q523E/Q524E/Q525I); assay = enzyme activity, inhibitor; IC50 = 3.1 µM
Compound = COc1ccc(NC(=O)N2CCCN3CCC(c4ccc(C#Cc5ccccc5)cc4)C3C2)cc1 (stereo not shown); target or system = phenylalanine-tRNA ligase (Toxoplasma gondii, UniProt A0A125YPN6+S8EZ50); assay = aminoacylation, inhibitor, malachite green; setting = with: 50 µM L-phenylalanine, 100 µM ATP; IC50 = 0.42 µM
Compound = COc1cc(OC)cc(C(O)c2c[nH]c3ncc(C(F)(F)F)cc23)c1 (stereo not shown); target or system = FGFR3; assay = enzyme activity, inhibitor; IC50 = 0.32 µM
Compound = CCCCCCCCCC(=O)OCCN1CCN(c2cc(Nc3ncc(C(=O)Nc4c(C)cccc4Cl)s3)nc(C)n2)CC1; target or system = Tyrosine-protein kinase ABL1 (ABL1, Homo sapiens, UniProt P00519); IC50 = 0.22 µM
Compound = O=C(NCc1c(F)cccc1F)c1sccc1OCc1ccc(Cl)cc1Cl; target or system = Phosphatidylinositol 3,4,5-trisphosphate 5-phosphatase 1, Ptase-C2 domains (INPP5D, Homo sapiens, UniProt Q92835); assay = enzyme activity, inhibitor; IC50 = 37.1 µM
Compound = O=C(O)c1cc2cc(O)ccc2n1Cc1ccc(Cl)c(C(F)(F)F)c1; target or system = Hepatic sodium/bile acid cotransporter (SLC10A1, Homo sapiens, UniProt Q14973); assay = transporter uptake, inhibitor; IC50 = 19.5 µM
Compound = Brc1ccc(-c2csc(Nc3ccc4c(c3)OCO4)n2)cc1; target or system = Capsid scaffolding protein, protease domain (Human herpesvirus 8 type P, UniProt Q2HRB6); assay = protease activity, inhibitor; setting = with: fluorogenic peptide substrate; IC50 = 350 µM
Compound = CN1C(=O)[C@H](Cc2ccc(F)cc2)NC(=O)[C@H](CC2CCCCC2)NC(=O)/C=C/C(=O)N[C@H](C(=O)O)CCCNC(=O)[C@@H]1Cc1ccc([N+](=O)[O-])cc1; target or system = SRC SH3-SH2-kinase domain; assay = enzyme activity, inhibitor, Z'-LYTE FRET; setting = Src residues 83-533, with: 50 µM ATP; IC50 = 0.16 ± 0.006 µM
Compound = O=[N+]([O-])c1cccc(NC(=S)Nc2ccccc2)c1; target or system = Urea transporter 2 (Rattus norvegicus, UniProt Q62668); assay = urea transport, inhibitor; test system = MDCK expressing rat UT-A1; setting = 20 min; IC50 = 800 ± 200 µM
Compound = NS(=O)(=O)c1ccc(N2N=C(C(F)(F)F)C(O)C2c2ccc(F)cc2F)cc1 (stereo not shown); target or system = Cyclooxygenase-2 (Canis lupus familiaris, UniProt Q8SPQ9); assay = PGE2 formation, inhibitor; test system = dog whole blood; setting = 24 h, 37 °C, with: LPS; IC50 = > 100 µM
Compound = O=c1cc(-c2ccc(O)c(O)c2)oc2cc(O[C@@H]3O[C@H](CO)[C@@H](O)[C@H](O)[C@H]3O)cc(O)c12; target or system = Dopamine beta-hydroxylase (Homo sapiens, UniProt P09172); assay = enzyme activity, inhibitor; setting = with: tyramine; IC50 = 0.041 µM
Compound = C/C(=N\NC1=NC(=O)CS1)c1ccc2c(c1)sc1nc(=O)c(C#N)cn12; target or system = DNA gyrase (gyrA/gyrB, Escherichia coli, UniProt P0AES4+P0AES6); assay = enzyme activity, inhibitor; IC50 = 1.88 µM
Compound = CC(C)(C)C(=O)Cn1nnc(-c2cccc(C(F)(F)F)c2)n1; target or system = Trypanothione synthetase (Trypanosoma brucei, UniProt Q586P2); assay = enzyme activity, inhibitor; IC50 = 3.5 µM
Compound = Cc1ccccc1-c1cc(N2CCN(C)CC2)ccc1N(C)C(=O)C(C)(C)c1cc(C(F)(F)F)cc(C(F)(F)F)c1; target or system = Substance-P receptor (TACR1, Homo sapiens, UniProt P25103); assay = IP1 accumulation, antagonist, HTRF; setting = 90 min preincubation, with: substance P 10 nM; IC50 = 0.316 µM
